# Experimental data collected from several papers.
# Numbered parts are unrelated; each lists some results of a single study.
# UniProt P25098, sequence (whole entry, looked up): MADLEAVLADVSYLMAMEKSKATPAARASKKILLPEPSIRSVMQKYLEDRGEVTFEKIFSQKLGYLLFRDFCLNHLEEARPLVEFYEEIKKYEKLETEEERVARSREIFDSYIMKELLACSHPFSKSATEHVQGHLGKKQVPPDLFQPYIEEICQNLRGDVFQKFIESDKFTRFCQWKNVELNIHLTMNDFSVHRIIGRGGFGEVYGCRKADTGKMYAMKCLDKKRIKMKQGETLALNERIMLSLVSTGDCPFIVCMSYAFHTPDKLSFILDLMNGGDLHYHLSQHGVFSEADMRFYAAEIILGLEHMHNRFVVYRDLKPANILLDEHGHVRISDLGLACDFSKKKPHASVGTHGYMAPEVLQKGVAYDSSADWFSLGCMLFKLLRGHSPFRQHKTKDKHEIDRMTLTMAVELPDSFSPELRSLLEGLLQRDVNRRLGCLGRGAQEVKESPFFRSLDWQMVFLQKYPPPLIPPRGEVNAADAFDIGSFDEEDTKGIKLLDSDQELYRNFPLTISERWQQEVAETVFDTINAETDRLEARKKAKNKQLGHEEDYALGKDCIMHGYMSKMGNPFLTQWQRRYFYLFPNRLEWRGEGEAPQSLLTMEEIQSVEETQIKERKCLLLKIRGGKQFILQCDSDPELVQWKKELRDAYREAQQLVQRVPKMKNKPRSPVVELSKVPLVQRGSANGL
# UniProt Q15746, sequence (whole entry, looked up): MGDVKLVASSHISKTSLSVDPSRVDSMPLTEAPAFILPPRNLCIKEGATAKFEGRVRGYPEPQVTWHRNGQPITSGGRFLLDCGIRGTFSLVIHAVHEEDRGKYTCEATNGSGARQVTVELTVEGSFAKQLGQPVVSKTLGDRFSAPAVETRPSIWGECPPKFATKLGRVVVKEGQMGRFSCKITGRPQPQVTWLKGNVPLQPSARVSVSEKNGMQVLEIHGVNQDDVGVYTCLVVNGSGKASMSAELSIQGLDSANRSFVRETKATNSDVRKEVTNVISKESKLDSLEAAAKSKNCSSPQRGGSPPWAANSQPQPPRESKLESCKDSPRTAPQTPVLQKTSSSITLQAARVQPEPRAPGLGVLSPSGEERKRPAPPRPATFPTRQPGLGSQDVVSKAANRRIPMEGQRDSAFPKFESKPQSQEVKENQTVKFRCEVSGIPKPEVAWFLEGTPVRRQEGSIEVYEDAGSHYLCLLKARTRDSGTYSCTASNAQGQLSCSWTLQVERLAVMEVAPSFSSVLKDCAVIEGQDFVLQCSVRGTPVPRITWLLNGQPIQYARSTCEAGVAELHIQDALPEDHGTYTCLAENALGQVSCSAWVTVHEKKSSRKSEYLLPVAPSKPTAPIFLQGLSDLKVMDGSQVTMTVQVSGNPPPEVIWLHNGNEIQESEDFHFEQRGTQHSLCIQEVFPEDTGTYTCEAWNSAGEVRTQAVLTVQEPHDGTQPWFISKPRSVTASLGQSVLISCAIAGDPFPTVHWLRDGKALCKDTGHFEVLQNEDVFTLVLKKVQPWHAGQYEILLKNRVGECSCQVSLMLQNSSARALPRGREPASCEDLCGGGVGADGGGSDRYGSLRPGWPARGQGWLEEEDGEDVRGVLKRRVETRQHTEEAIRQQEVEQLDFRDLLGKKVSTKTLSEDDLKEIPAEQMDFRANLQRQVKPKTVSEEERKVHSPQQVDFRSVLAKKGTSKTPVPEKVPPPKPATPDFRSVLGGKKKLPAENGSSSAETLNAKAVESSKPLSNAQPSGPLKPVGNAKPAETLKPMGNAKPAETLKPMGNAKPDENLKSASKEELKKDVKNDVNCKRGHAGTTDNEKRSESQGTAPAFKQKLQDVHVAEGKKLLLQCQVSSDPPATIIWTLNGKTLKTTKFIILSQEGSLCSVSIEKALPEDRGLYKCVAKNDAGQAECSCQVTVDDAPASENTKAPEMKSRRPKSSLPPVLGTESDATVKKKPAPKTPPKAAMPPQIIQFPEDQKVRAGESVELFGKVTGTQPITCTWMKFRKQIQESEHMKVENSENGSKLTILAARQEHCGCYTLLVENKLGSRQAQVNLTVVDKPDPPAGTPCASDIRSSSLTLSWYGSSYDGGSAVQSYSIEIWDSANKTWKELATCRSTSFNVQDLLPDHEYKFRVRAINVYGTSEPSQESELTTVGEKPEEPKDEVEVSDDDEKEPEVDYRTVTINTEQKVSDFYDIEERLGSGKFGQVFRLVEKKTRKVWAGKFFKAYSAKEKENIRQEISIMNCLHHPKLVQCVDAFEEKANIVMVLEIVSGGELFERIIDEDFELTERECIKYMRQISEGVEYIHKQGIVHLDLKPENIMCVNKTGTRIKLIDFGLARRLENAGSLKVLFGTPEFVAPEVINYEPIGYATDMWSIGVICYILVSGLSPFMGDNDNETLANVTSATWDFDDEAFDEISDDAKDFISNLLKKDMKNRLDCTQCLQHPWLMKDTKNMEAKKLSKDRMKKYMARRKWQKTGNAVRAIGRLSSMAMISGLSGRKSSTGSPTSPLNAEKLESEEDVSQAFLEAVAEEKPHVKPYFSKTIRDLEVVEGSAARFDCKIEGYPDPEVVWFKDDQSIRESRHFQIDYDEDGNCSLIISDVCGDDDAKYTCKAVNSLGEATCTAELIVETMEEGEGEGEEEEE
# UniProt P23443, sequence (whole entry, looked up): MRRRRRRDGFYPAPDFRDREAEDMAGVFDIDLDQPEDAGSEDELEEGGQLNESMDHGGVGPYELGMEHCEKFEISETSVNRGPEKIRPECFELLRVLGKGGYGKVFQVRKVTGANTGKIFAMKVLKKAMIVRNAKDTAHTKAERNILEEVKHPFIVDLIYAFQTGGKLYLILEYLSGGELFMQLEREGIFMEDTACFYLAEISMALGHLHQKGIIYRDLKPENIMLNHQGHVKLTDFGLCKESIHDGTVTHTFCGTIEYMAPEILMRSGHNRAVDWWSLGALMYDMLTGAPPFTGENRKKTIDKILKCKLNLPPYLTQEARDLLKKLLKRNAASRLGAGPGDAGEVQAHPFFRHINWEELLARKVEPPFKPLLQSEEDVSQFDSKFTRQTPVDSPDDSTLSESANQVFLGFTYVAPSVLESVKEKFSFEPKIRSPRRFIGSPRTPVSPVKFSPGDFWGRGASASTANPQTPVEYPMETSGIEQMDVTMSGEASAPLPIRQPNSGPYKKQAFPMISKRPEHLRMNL
# UniProt Q15569, sequence (whole entry, looked up): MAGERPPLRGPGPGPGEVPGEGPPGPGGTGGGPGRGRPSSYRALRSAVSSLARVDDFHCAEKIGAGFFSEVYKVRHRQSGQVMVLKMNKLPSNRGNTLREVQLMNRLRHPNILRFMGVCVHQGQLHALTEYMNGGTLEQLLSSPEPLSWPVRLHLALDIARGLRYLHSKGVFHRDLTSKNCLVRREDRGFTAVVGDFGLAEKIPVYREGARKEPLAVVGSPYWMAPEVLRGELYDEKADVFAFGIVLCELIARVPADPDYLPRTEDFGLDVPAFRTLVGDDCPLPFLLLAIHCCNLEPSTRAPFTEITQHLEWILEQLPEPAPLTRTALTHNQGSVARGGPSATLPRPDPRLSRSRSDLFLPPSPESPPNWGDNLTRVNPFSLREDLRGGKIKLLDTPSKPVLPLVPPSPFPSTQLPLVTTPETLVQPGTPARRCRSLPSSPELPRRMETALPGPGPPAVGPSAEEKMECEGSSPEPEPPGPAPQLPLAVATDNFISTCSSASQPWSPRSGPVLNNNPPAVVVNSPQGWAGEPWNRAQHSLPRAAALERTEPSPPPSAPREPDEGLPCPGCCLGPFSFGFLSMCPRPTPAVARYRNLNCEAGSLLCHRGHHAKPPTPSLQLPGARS
# UniProt Q9P1W9, sequence (whole entry, looked up): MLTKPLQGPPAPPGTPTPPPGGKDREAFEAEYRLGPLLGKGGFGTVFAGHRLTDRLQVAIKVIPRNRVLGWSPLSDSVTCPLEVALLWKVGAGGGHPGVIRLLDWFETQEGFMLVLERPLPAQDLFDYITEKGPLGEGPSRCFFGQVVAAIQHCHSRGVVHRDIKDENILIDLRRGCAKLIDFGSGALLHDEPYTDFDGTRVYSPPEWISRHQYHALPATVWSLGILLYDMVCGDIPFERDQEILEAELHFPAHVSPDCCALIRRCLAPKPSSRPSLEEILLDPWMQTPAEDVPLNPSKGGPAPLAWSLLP

# Series 1 — cell line: HH; tested at: 2 µM; time: 48 h; reference: untreated
SMILES,viability [%]
Nc1cccc(-c2cc3c(Oc4cccc(O)c4)ncnc3[nH]2)c1,57.2
COc1cc(F)c(F)c(Nc2ccc(I)cc2F)c1NS(=O)(=O)C1(C[C@H](O)CO)CC1,111
COc1ccc(S(=O)(=O)N(CCO)c2ccccc2CN(C)C/C=C/c2ccc(Cl)cc2)cc1,69.6
Nc1cccc(S(=O)(=O)N2CCCN(S(=O)(=O)c3ccc4c(c3)OCCO4)CC2)c1,56.4
Cn1cnc2c(F)c(Nc3ccc(Br)cc3F)c(C(=O)NOCCO)cc21,98.5

# Series 2 — effect on: cell-free assay; technique: competition with immobilised ligand; tested at: 1 µM
# SMILES: COc1ccc2c(O[C@@H]3C[C@H]4C(=O)N[C@]5(C(=O)O)CC5/C=C\CCCCC[C@H](NC(=O)OC5CCCC5)C(=O)N4C3)cc(-c3csc(NC(=O)C(C)C)n3)nc2c1C (stereo partly shown)
target,remaining binding
"IKBKB (Homo sapiens, UniProt O14920)",83%
"MAPK1 (Homo sapiens, UniProt P28482)",89%
"TGFBR1 (Homo sapiens, UniProt P36897)",100%
"PLK4 (Homo sapiens, UniProt O00444)",77%
"TESK1 (Homo sapiens, UniProt Q15569)",91%
"CDKL3 (Homo sapiens, UniProt Q8IVW4)",92%
"Ribosomal protein S6 kinase alpha-6, N-terminal kinase domain (RPS6KA6, Homo sapiens, UniProt Q9UK32)",92%
"STK32B (Homo sapiens, UniProt Q9NY57)",100%

# Series 3 — technique: Phase 2a trial; species: idiopathic pulmonary fibrosis patients
# SMILES: CC(C)n1cnc(-c2ccc(F)cc2)c1-c1ncc(C(=O)Nc2ccc(N3CCN(C)CC3)cc2)[nH]1
assay,conditions,patients with adverse events [%]
item: gamma-glutamyltransferase increased,"dose not given, grade 3 maximum intensity, all arms",0
item: blood creatine phosphokinase increased,"30 mg once daily, grade 4 maximum intensity",0
item: muscular weakness,"dose not given, grade 5 maximum intensity, all arms",0
item: neutrophil count increased,"60 mg once daily, grade 1 maximum intensity",0
item: chest discomfort,"dose not given, grade 3 maximum intensity, all arms",0
item: urinary tract infection,"60 mg once daily, grade 1 maximum intensity",0
item: reticulocyte count increased,"30 mg once daily, grade 2 maximum intensity",0
item: vision blurred,"30 mg once daily, grade 3 maximum intensity",0
item: infections and infestations,"60 mg once daily, grade 5 maximum intensity",0

# Series 4 — effect on: enzyme activity; mode: inhibitor; tested at: 0.5 µM; reference: control
# Structure (SMILES): O=Nc1c(-c2c(O)[nH]c3cc(Br)ccc23)[nH]c2ccccc12
target,remaining activity [%]
"GRK2 (Homo sapiens, UniProt P25098)",97.3
"MYLK (Homo sapiens, UniProt Q15746)",45
"PAK2 (Homo sapiens, UniProt Q13177)",90.9
"PRKCG (Homo sapiens, UniProt P05129)",90.9
"PIM2 (Homo sapiens, UniProt Q9P1W9)",95.5
"RPS6KA1 (Homo sapiens, UniProt Q15418)",47.2
"EPHA7 (Homo sapiens, UniProt Q15375)",81.4
"FLT3 (Homo sapiens, UniProt P36888)",4.02
"RPS6KB1 (Homo sapiens, UniProt P23443)",79.6

# Repeated from above (series 2):
target,remaining binding
"MAPK1 (Homo sapiens, UniProt P28482)",89%
"TGFBR1 (Homo sapiens, UniProt P36897)",100%
"PLK4 (Homo sapiens, UniProt O00444)",77%
"TESK1 (Homo sapiens, UniProt Q15569)",91%
"CDKL3 (Homo sapiens, UniProt Q8IVW4)",92%
